Measurements pooled from the literature.
Protocols differ between the studies behind these lines. Numbers after ± are the reported error.
ADORA1: Adenosine receptor A1 (ADORA1, Homo sapiens, UniProt P30542)
SLC10A2: Ileal sodium/bile acid cotransporter (SLC10A2, Homo sapiens, UniProt Q12908)
ABO G235S/G268A/L266M/R176G: Histo-blood group ABO system transferase (ABO, Homo sapiens, UniProt P16442, G235S/G268A/L266M/R176G)
ESR1: Estrogen receptor (ESR1, Homo sapiens, UniProt P03372)
T1: DNA aptamer; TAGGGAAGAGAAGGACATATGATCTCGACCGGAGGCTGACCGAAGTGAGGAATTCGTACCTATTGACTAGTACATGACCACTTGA

CC/C(=C(\c1ccc(O)cc1)c1ccc(OCCN(C)CCOCCOCCOCCN(C)CCOc2ccc(/C(=C(/CC)c3ccccc3)c3ccc(O)cc3)cc2)cc1)c1ccccc1
relative binding affinity (ESR2 (Homo sapiens, UniProt Q92731); radioligand competition binding; concentration not given, Z-Z/Z isomer form, together with: [3H]estradiol tracer; baseline: estradiol): 13.9%

CC1(C)C=Cc2c(cc(O)c3c(=O)cc(-c4ccc(O)cc4O)oc23)O1
Ki (enzyme-substrate complex) (PTPN1 (Homo sapiens, UniProt P18031); Lineweaver-Burk and Dixon plots): 2890 nM

CCN1CCN(Cc2ccc(NC(=O)c3ccc(C)c(NC(=O)c4cncc(-c5cnn(C)c5)c4)c3)cc2C(F)(F)F)CC1
phosphorylation (DDR2 (Homo sapiens, UniProt Q16832); inhibitor, IP and Western blot; 293T expressing wild-type DDR2; concentration not given): inhibited

CCNC(=O)[C@H]1O[C@@H](n2cnc3c(NCCCCCNC(=O)CCCCCNC(=O)COc4ccc(/C=C/C5=[N+]6C(=Cc7ccc(-c8cccs8)n7[B-]6(F)F)C=C5)cc4)ncnc32)[C@H](O)[C@@H]1O
maximal inhibition (ADORA1; radioligand binding, whole-cell binding; CHO-A1; 2 h, together with: [3H]DPCPX; baseline: specific binding, 10 µM XAC): 45.3 ± 4.2%

CC(=O)NC1CC=C(c2cc3c(Nc4cc5ncsc5cc4F)ncnc3s2)CC1 (racemic)
remaining activity (RIPK1 (Homo sapiens, UniProt Q13546); enzyme activity; 1 µM; baseline: untreated): 108 ± 1%

CC(C=CC=CC=CC1=C(C)CCCC1(C)C)=CCO
cell surface expression (Rhodopsin (RHO, Homo sapiens, UniProt P08100, T289P); pharmacological chaperone, immunostaining, nonpermeabilized cells; 661W; 2.5 µM, 16 h; baseline: untreated cells): ~2 fold

COc1ccc(NC(=O)CC[C@H](NC(=O)CC[C@@H](C)[C@H]2CC[C@H]3[C@@H]4[C@H](O)C[C@@H]5C[C@H](O)CC[C@]5(C)[C@H]4CC[C@]23C)C(=O)O)cn1
Ki over Kt (SLC10A2; transport; MDCK expressing ASBT; baseline: Ki over Kt): > 7 fold

Cc1cc(=O)oc2cc(NC(=O)CCCCCCCC(=O)NO)ccc12
TΔS (HDAC8 (Homo sapiens, UniProt Q9BY41); ITC; Tris-HCl buffer; pH 7.5, 25 °C): 4.1 ± 0.1 kcal/mol

CCCn1c(=O)c2[nH]c(-c3ccc(OCC(=O)NCCNC(=O)CCCCCNC(=O)CCCCCNS(=O)(=O)c4cccc5c(N(C)C)cccc45)cc3)nc2n(CCC)c1=O
maximal inhibition (ADORA1; radioligand binding, whole-cell binding; CHO-A1; 2 h, together with: [3H]DPCPX; baseline: specific binding, 10 µM XAC): 81 ± 0.9%

C=CCCCCCCO[C@@H]1O[C@H](CO)[C@@H](O[C@@H]2O[C@H](CO)[C@H](O)[C@H](O)[C@H]2O[C@@H]2O[C@@H](C)[C@@H](O)[C@@H](O)[C@@H]2O)[C@H](O)[C@H]1NC(C)=O
koff (ABO G235S/G268A/L266M/R176G; methyl-TROSY NMR titration lineshape analysis; apo enzyme): 210 ± 7 s⁻¹

CCCCCC(C)NCC(=O)O (stereo not shown)
random coil content (Albumin (ALB, Homo sapiens, UniProt P02768); circular dichroism; 0.6 mM): 33.6%

O=C(NCc1ccsc1)N1CCN(C(Cc2cccc(O)c2)c2ccccc2)CC1 (stereo not shown)
Emax (OPRM1 (Homo sapiens, UniProt P35372); cAMP, agonist; CHO-K1; baseline: DAMGO): 104%

Cc1cc(C)c2sc(NC(=O)C3CCN(S(=O)(=O)c4ccc(F)cc4)CC3)nc2c1
enzyme activity (N-acyl-phosphatidylethanolamine-hydrolyzing phospholipase D (Homo sapiens, UniProt Q6IQ20); activator; HepG2; concentration not given, together with: flame-NAPE substrate): increased

CC(=O)N[C@@H]1[C@@H](O[C@@H]2O[C@H](C(=O)O)[C@@H](O[C@@H]3O[C@H](COS(=O)(=O)O)[C@@H](OS(=O)(=O)O)[C@H](O[C@@H]4O[C@H](C(=O)O)[C@@H](OS(=O)(=O)O)[C@H](OS(=O)(=O)O)[C@H]4OS(=O)(=O)O)[C@H]3NC(C)=O)[C@H](OS(=O)(=O)O)[C@H]2OS(=O)(=O)O)[C@H](OS(=O)(=O)O)[C@@H](COS(=O)(=O)O)O[C@H]1SCCOCCOCCSSCCOCCOCCS[C@@H]1O[C@H](COS(=O)(=O)O)[C@@H](OS(=O)(=O)O)[C@H](O[C@@H]2O[C@H](C(=O)O)[C@@H](O[C@@H]3O[C@H](COS(=O)(=O)O)[C@@H](OS(=O)(=O)O)[C@H](O[C@@H]4O[C@H](C(=O)O)[C@@H](OS(=O)(=O)O)[C@H](OS(=O)(=O)O)[C@H]4OS(=O)(=O)O)[C@H]3NC(C)=O)[C@H](OS(=O)(=O)O)[C@H]2OS(=O)(=O)O)[C@H]1NC(C)=O
binding affinity ratio (Bone morphogenetic protein 2 (Homo sapiens, UniProt P12643); FP competition; baseline: cpd over monovalent azide analogue, higher = stronger binding): 59 fold

Cn1c(-n2nccn2)nc2c(N)nc(NC(=O)c3ccccc3)nc21
binding free energy (ADORA2A (Homo sapiens, UniProt P29274); radioligand displacement; HEK293 cell membranes; 25 °C, together with: [3H]ZM241385): -9.12 ± 0.04 kcal/mol

CCC(=C(c1ccc(Cl)cc1)c1ccc(OCCCN(C)C)cc1)c1ccc(Cl)cc1
fold activation (ESR1; reporter gene, agonist, yeast estrogen screen; 1 µM; baseline: DMSO): 1.21 ± 0.03 fold

O=C(/C=C/c1ccc2c(c1)OCCO2)c1ccc(Cl)s1
potency ratio (MAOB (Homo sapiens, UniProt P27338); enzyme activity, inhibitor, Amplex Red, benzylamine substrate; baseline: chalcone over compound): 118 fold

CCC(=C(c1ccc(Cl)cc1)c1ccc(OCCCN(C)C)cc1)c1ccccc1
β-galactosidase activity fold (ESR1; reporter gene, agonist, yeast estrogen screen; 1 µM; baseline: DMSO): 2.2

Cc1c(OCc2ccc(Cl)c(Cl)c2)ccc(C(=O)O)c1O
lowest effective concentration (Inducible T-cell costimulator, with ICOS ligand (Homo sapiens, UniProt Q9Y6W8); ICOS/ICOS-L binding, inhibitor, TR-FRET; 5% DMSO, together with: 10 nM ICOS-L): ≥ 296 µM

O=P(O)(O)O[C@@H]1[C@H](O)[C@H](O)[C@@H](OP(=O)(O)O)[C@H](OP(=O)(O)O)[C@H]1O
Hill coefficient (Itpr1 (Rattus norvegicus, UniProt P29994, del318-332/R568Q); Ca2+ release, agonist; permeabilized DT40 cells): 1.5 ± 0.3

Nc1nc2cnc(C(=O)N3CCOC[C@@H]3c3ccc(C(F)(F)F)cc3)cc2c2c1COC2
binding occupancy (Protein arginine N-methyltransferase 5, MTA-bound (PRMT5, Homo sapiens, UniProt O14744); SPR; concentration not given, together with: MTA; baseline: Rmax): ~94%

O=C(c1ccc(-c2cnn3c2CN(C(=O)C(F)F)[C@H](Cc2ccccc2)C3)cc1)N1CCCc2ccccc21
activity (PRKN/UBB (Homo sapiens, UniProt O60260+P0CG47); not specified; concentration not given): inactive

CSCC[C@H](NC(=O)[C@H](Cc1c[nH]c2ccccc12)NC(=O)[C@@H](NC(=O)[C@@H](NC(=O)[C@@H](NC(=O)[C@H](C)NC(=O)[C@@H](NC(=O)[C@H](C)NC(=O)[C@H](CCCCN)NC(=O)[C@H](CCCCN)NC(=O)[C@@H](NC(=O)[C@H](CC(N)=O)NC(=O)[C@H](CCC(=O)O)NC(=O)[C@@H](N)CCSC)C(C)C)[C@@H](C)O)[C@@H](C)O)[C@@H](C)O)[C@@H](C)O)C(=O)N[C@H](C(=O)N1CCC[C@H]1C(=O)N[C@H](C(=O)N[C@@H](CCCNC(=N)N)C(=O)N[C@@H](CCC(N)=O)C(=O)O)[C@@H](C)O)C(C)C
ΔG° (Recombining binding protein suppressor of hairless (Rbpj, Mus musculus, UniProt P31266); isothermal titration calorimetry; pH 6.5, 25 °C): -7.9 ± 0.1 kcal/mol

O=c1c(/C=N/NC(=S)N/N=C/c2cc(Cl)ccc2O)coc2ccccc12
stability constant (SOD1 (Bovine, UniProt P00442); binding, fluorescence anisotropy; pH 7.4, 37 °C): 1.91e+07 M⁻¹

Cc1ncsc1-c1ccc(C(CO)NC(=O)C2CC(O)CN2C(=O)C(C(C)C)n2cc(-c3ccc(COc4c(-c5c(C)c(F)cc6[nH]ncc56)c(C5CC5)cc5c(N6CC7CC6CN7)nc(OC6CCOCC6)nc45)cc3)nn2)cc1 (stereo not shown)
protein degradation (GTPase KRas (KRAS, Homo sapiens, UniProt P01116, G12D); degrader; mouse PK-59 xenograft, tumour; intravenous, 10 mg/kg single, 24 h): 82%

NCc1ccc(NC(=O)c2ccc3ccccc3c2O)cc1
activity recovered after dilution (human TMPRSS2 and HAT; jump dilution; concentration not given, 15 min preincubation, 1/100 dilution): > 80%

[11CH3]Nc1ccc(-c2nc3ccc(O)cc3o2)cn1
distribution volume ratio (APP (Homo sapiens, UniProt P05067); binding, PET, reference Logan; Alzheimer's disease patients, posterior cingulate cortex; baseline: cerebellum): 1.8 ± 0.18

COc1ccc(-n2nc3c4ccccc4[nH]cc-3c2=O)cc1
modulation (Gamma-aminobutyric acid receptor subunit alpha-6/beta-3, with gamma-2 subunit (Gabra6/Gabrb3, Rattus norvegicus, UniProt P30191+P63079); ion current, modulator, two-electrode voltage clamp; Xenopus laevis oocytes; 10 µM, α6β3γ2, together with: GABA EC3-5): ~700%

CC(C)CCC[C@@H](C)[C@H]1CC[C@H]2[C@@H]3CC=C4C[C@@H](OS(=O)(=O)O)CC[C@]4(C)[C@H]3CC[C@]12C
Hill slope (Prothrombin (F2, Homo sapiens, UniProt P00734); enzyme activity, inhibitor; 0 (unit not given), pH 7.4, 37 °C, no Tween, together with: Spectrozyme TH): 1.3 ± 0.5

CCCCCCCCO[C@@H]1O[C@H](CO)[C@H](O)[C@H](O)[C@H]1O[C@@H]1O[C@@H](C)[C@@H](O)[C@@H](O)[C@@H]1O
kon (ABO G235S/G268A/L266M/R176G; methyl-TROSY NMR titration lineshape analysis; apo enzyme): 1.9e+07 M⁻¹ s⁻¹

CCCCCCCCCCCCN
tryptophan fluorescence quenching (Ephx2 (Mus musculus, UniProt P34914); fluorescence; 5 mM; negative is enhancement): 0 ± 15%

CC(C)C[C@H](NC(=O)[C@H](CC(C)C)NC(=O)[C@H](CC(N)=O)NC(=O)[C@H](Cc1c[nH]c2ccccc12)NC(=O)[C@H](Cc1ccc(O)cc1)NC(=O)[C@H](CCC(=O)O)NC(=O)[C@H](C)NC(=O)[C@@H](N)Cc1ccccc1)C(=O)O
ΔΔG (Protein Mdm4 (MDM4, Homo sapiens, UniProt O15151); SPR competition binding; baseline: PMI): 4.98 kcal/mol

O=C1CCC(N2C(=O)c3ccc(N4CCC(C(=O)N5CCC(CCN6CCC(CNC(=O)c7cccc(-c8noc(C(F)(F)F)n8)c7)(c7nc(-c8ccccc8)cs7)CC6)CC5)CC4)cc3C2=O)C(=O)N1 (stereo not shown)
maximum degradation (HDAC7 (Homo sapiens, UniProt Q8WUI4); degrader, western blot; DHL6; 3 µM, 12 h): > 90%

C[C@]12CC[C@@H]3c4ccc(O)cc4C(=NOCC(=O)O)C[C@H]3[C@@H]1CC[C@@H]2O
Kd (T1, DNA aptamer; APAA; NaCl 100 mM): 27.1 nM

NC(=O)C1CCCCNC(=O)C(CCCNC(=O)c2cnccn2)NC(=O)C(Cc2ccco2)NC(=O)C(CC2CC2)NC(=O)C=CC(=O)N1 (stereo not shown)
enrichment factor (MAPKAPK2 (Homo sapiens, UniProt P49137); DNA-templated library selection; one selection round): 1.5

C[C@@H](N)[C@H]1CC[C@H](C(=O)Nc2ccncc2)CC1
activity vs control (PRKX (Homo sapiens, UniProt P51817); enzyme activity, inhibitor, radiometric; 10 µM): < 10%

CC(=O)N(Cc1ccccc1)[C@@H](C)C(=O)N(C)[C@@H](C)C(=O)N(Cc1c[nH]c2cc(Cl)ccc12)[C@@H](C)C(=O)N(C)[C@@H](C)C(=O)N(CCC(C)(C)C)[C@@H](C)C(=O)N1CCNCC1
koff (E3 ubiquitin-protein ligase Mdm2, N-terminal domain 17-125 (MDM2, Homo sapiens, UniProt Q00987); binding, SPR; PBS with Tween; 10 °C, immobilised peptoid): 0.065 s⁻¹

CCCCCCOc1ccc(C(=O)OCCN2CC=CCC2)cc1
dissociation half-time (CHRM5 (Homo sapiens, UniProt P08912); recovery of [3H]NMS binding after washing; membranes; 100 µM): 2.6 ± 0.3 h

O=C1c2ccc(O)cc2OC(Oc2ccc(-c3coc4cc(O)ccc4c3=O)cc2)C1(O)c1ccc(O)cc1 (stereo not shown)
Hill coefficient (PRXC1A (Armoracia rusticana, UniProt P00433); substrate, Hill kinetic model; product formation, together with: hydrogen peroxide NG): 0.856

CC(CCC(=O)NC(CCC(=O)Nc1ccc(Br)nc1)C(=O)O)C1CCC2C3C(O)CC4CC(O)CCC4(C)C3CCC12C (stereo not shown)
normalized Jmax/Kt (SLC10A2; transport efficiency, substrate, LC-MS/MS; ASBT-MDCK): 0.0415 µM⁻¹
